Results of several laboratories.
Parts stem from different laboratories: compare values within a part only. Positions count from the first letter of the parent shown.

Study 1 — technique: protein-binding microarray; molecule type: double-stranded DNA, one strand shown; matrix: in vitro; concentration: 2200 nM top; notes: 60-bp whole probe; added: salmon DNA 0.4 mg/ml; baseline: random background probes; reading: higher = stronger binding; shared flanks, not repeated: GCCTAGCAC … GTCTTGATTCGCTTGACGCTGCTG
Target: Interferon regulatory factor 7, full length, phosphomimetic (IRF7, Homo sapiens, UniProt Q92985, residues 1-503, S471D/S472D/S475D/S476D/S477D/S483D/S484D/S487D)
Chain of UniProt Q92985 (whole entry, unmodified, looked up): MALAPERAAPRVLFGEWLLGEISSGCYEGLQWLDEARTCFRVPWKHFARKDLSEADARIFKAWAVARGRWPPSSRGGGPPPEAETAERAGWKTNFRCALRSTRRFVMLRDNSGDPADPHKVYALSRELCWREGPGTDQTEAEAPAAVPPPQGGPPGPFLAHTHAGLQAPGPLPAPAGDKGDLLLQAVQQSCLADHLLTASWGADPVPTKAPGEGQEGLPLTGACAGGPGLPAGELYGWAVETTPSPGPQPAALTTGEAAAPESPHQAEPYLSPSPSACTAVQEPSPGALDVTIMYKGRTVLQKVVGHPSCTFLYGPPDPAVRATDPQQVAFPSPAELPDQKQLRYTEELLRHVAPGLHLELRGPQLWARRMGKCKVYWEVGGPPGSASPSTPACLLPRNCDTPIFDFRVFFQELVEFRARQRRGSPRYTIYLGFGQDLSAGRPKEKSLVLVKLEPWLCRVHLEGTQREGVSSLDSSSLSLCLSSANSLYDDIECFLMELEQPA
Sequence | fitted relative affinity [z-score]
GACGGTTTCGGGACTGGCGACGTGCTA | 3.67
TTAGATTTCGGGACTGGAATAGTGCTA | 0.881
TTAGGTCTCGGTTTCGGATAGTGCTAG | 3.92
GACGAACTGAGTTTAGAGACGTGCTAG | -0.179
GACCATTTCAGTTTCGAGACGTGCTAG | 5.06
GACGGGTTCGGGTATCGGGACGTGCTA | 0.195

Study 2 — target: CCNB3, cyclin fold, Cln2 fusion (human); technique: yeast growth competition, sequencing; matrix: yeast; notes: weak parent motif; baseline: not given; reading: higher = stronger binding
Parent: INSM1 docking peptide (human); PKAIRKLHFEDEV; partner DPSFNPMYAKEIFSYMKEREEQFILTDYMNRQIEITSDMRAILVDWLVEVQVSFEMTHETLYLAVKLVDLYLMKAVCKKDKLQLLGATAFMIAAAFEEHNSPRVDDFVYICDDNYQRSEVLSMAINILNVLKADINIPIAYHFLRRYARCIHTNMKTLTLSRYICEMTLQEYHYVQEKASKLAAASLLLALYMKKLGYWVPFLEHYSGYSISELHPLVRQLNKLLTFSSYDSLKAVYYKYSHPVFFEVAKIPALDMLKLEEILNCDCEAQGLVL
Substitution | normalised enrichment score
L7F | -0.192
E12N | 0.329
D11R | 0.105
K6N | 0.432

Study 3 — technique: RNA Bind-n-Seq; molecule type: RNA; matrix: in vitro; concentration: 100 nM; baseline: input RNA pool; reading: higher = stronger binding
Target: RING finger protein unkempt homolog, zinc fingers 1-6, SBP tag (UNK, Homo sapiens, UniProt Q9C0B0, residues 30-357)
Chain of UniProt Q9C0B0 (30-357, looked up): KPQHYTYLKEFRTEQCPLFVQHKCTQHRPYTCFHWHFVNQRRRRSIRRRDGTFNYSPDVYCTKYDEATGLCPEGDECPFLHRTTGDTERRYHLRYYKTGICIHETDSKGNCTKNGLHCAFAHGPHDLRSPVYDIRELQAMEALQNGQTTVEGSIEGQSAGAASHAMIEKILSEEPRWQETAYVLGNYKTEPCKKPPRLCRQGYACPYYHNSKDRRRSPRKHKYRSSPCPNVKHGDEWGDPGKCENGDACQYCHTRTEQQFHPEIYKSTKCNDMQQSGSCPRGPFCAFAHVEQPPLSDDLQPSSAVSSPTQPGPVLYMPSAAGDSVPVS
Notes: RNA with constant flanks, vertebrate orthologous sites, ends assumed
Sequence | bound/input enrichment
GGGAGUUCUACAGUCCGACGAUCCUAUGUAGUGGUUAACGGUGGCGUCUUCCUCUGCAUCUCCCGUGAAGAAAAAAAAACAAACAUACUCCUCACACAUCUGAUGAUGCAGUUCUGUUUUUGUUUUCUGCUUUUACAUAUACACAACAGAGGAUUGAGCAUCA | 0.605 ratio
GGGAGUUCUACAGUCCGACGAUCGUGACUUUGGGCGUCCGCACUACCUGGGUAGGGAGACUGCUUAGUCUUGACCCCGCAGAUUUGUUUUUCUCCGUUGGGCUGUAGACCUUUGCUGCAAACAUGCUCCGCCAGAUCAUCGGUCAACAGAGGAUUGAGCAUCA | 0.506 ratio
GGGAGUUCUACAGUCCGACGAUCUAUGUCCUUGAUUCACAUUCCUCUCUGUUUGUGUUUAGAGAAAGGAAAAAAAAAGACAUUUUAGCCUUUUUUAAAGUUAUCGAUAUAAUUUCUUAUUACUUGGUUGCAUGAAGUUGCCCUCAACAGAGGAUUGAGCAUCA | 0.594 ratio
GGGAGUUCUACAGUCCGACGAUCGGGGCAGCCAGUGGGGAAAUCCCUGCCUUGGCCACCUGUCCGCUCCCUGCCACCUGCCCUUAGUUAUUUUUUUUUAACCACCACAUGAUUAUAGUUGGCAUUGUCCACUCAGCAAUGGGACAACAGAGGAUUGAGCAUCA | 3.23 ratio
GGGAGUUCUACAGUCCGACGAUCCAAUUCAAUGGUUGAGGGUUCAGAACUGAAAAAGGUUCGCUCCAACUCUAGGAUUUACCAUAGGUAUUUUUUACUAGACGCUGACAUGCAAAGCCUGAGGUGGGAGCCGUCCAAGAAGGACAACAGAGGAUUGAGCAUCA | 0.6 ratio
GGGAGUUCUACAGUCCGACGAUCUGUCCCUGUUAAGCACUGCGUUCCAGACCGUGUCUGACUUAGUUAACCUAGGGGAUUUUAUAGUUUUACUUUAACGAAGUCCUGAUUAACACAGAACAGCGGGAGGACGGUUCCUCUCCUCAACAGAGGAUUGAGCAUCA | 0.397 ratio
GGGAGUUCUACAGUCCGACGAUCCUGGCUGUGUUACUGUGGCAUUUGAAAUAUUCACAGUAUUCAAUUUUCCCAAAAUGAUUCUAGUAAUUGCCUAGAAAUAUCUUUCUCUUACCUGUUAUUUAUCAGUGUUCCCAGUAUUUUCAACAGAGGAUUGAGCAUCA | 0.448 ratio
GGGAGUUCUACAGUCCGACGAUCCAACGCCAUGGUGGAAGGCUCUGAGCUCAAAAAGGUCCGCUCCAACUCCAGGGUGUAUCACCGAUACUUCCUUUUGGAUGCUGAUAUGCAGUCUCUCCGCUGGGAGCCUUCGAAAAAGGACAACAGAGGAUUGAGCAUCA | 0.198 ratio

Single results of other studies
Substance | target | test | system | setting | how to read | quantity | result
PhoQ, residues 284 288 289 292 302 303 AAQSYM | PhoP, residues 12 14 15 18 19 STWGI (Escherichia coli, UniProt P23836) | Sort-seq, item: YFP reporter | E. coli | PhoQ-PhoP variant library, added: 10 µM Mg2+ | baseline: high Mg2+ state, higher = stronger signaling | fold induction | 1.4

Excerpt of the above (study 1):
Sequence | fitted relative affinity [z-score]
GACCATTTCAGTTTCGAGACGTGCTAG | 5.06
GACGGGTTCGGGTATCGGGACGTGCTA | 0.195
